Assay results of several laboratories.
Lines come from different studies, so protocols differ. “And” joins repeats or separate records; there may be more than shown. ± marks the error that the study gave.
GLP1R: Glucagon-like peptide 1 receptor (GLP1R, Homo sapiens, UniProt P43220)
UniProt Q9HC35, sequence (whole entry, looked up): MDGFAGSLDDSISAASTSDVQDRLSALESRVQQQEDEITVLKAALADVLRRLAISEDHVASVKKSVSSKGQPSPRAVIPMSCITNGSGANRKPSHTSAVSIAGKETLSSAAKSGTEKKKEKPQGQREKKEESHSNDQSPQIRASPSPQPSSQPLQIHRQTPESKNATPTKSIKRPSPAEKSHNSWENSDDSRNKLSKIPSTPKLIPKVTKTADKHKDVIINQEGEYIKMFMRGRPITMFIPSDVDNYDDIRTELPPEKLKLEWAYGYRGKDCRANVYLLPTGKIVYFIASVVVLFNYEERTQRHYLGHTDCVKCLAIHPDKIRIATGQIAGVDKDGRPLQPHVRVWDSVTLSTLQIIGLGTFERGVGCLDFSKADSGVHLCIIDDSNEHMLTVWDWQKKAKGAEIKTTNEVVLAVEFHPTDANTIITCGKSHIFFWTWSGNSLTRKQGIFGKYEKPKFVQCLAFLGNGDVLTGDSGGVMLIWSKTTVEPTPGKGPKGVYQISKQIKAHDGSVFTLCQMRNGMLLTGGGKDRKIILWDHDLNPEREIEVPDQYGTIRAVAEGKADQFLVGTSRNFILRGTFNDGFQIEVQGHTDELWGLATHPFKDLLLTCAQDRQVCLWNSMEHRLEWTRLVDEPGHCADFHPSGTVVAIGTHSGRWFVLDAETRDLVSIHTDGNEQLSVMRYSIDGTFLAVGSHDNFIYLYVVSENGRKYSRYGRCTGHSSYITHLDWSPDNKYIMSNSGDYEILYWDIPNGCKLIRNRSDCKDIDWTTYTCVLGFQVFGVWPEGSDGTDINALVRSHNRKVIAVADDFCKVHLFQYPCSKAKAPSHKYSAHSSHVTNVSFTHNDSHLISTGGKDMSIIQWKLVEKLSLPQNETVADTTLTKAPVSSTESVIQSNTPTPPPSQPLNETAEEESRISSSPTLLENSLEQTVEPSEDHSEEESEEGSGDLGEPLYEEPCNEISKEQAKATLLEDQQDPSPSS
UniProt Q9UM73, sequence (whole entry, looked up): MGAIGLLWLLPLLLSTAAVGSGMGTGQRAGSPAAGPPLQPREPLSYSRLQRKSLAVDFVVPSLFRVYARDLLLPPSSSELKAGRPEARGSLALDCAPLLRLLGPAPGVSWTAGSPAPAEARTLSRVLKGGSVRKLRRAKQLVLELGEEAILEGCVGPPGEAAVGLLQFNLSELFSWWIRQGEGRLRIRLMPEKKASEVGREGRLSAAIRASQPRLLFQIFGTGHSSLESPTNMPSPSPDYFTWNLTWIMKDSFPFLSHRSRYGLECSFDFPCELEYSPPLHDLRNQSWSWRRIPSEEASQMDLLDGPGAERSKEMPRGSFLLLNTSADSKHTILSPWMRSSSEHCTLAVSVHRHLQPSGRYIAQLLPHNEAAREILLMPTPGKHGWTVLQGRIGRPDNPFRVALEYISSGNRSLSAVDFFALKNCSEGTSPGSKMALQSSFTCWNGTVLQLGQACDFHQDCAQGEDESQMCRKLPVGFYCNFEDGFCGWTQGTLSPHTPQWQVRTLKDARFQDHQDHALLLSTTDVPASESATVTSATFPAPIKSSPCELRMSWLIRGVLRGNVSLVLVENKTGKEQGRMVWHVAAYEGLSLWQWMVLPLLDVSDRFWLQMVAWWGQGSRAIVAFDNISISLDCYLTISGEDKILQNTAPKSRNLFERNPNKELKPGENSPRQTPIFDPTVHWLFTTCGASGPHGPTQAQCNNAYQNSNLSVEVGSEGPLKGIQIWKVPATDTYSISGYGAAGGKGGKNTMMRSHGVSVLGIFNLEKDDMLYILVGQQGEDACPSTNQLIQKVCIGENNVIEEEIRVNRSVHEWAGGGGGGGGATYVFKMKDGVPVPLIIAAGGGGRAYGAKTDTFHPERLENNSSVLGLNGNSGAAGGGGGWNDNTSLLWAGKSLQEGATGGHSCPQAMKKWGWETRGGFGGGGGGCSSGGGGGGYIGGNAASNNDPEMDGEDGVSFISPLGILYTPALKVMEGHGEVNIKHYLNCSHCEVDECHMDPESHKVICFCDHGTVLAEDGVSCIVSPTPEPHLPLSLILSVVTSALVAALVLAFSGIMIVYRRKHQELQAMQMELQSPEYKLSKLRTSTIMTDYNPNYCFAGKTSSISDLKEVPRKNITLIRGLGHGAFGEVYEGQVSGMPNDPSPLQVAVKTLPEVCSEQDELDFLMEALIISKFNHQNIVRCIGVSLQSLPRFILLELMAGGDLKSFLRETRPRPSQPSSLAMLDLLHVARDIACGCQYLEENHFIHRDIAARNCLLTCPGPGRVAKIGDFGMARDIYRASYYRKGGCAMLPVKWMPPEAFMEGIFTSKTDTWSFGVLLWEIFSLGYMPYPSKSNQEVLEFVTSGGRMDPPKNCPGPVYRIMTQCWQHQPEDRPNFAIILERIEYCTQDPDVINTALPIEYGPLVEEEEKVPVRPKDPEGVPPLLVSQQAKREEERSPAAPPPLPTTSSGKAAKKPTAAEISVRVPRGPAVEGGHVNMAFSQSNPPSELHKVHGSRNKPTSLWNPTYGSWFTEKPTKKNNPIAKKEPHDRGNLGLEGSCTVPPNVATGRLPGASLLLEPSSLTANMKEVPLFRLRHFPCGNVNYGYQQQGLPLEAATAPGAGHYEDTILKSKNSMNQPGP
UniProt O15164, sequence (whole entry, unmodified, looked up): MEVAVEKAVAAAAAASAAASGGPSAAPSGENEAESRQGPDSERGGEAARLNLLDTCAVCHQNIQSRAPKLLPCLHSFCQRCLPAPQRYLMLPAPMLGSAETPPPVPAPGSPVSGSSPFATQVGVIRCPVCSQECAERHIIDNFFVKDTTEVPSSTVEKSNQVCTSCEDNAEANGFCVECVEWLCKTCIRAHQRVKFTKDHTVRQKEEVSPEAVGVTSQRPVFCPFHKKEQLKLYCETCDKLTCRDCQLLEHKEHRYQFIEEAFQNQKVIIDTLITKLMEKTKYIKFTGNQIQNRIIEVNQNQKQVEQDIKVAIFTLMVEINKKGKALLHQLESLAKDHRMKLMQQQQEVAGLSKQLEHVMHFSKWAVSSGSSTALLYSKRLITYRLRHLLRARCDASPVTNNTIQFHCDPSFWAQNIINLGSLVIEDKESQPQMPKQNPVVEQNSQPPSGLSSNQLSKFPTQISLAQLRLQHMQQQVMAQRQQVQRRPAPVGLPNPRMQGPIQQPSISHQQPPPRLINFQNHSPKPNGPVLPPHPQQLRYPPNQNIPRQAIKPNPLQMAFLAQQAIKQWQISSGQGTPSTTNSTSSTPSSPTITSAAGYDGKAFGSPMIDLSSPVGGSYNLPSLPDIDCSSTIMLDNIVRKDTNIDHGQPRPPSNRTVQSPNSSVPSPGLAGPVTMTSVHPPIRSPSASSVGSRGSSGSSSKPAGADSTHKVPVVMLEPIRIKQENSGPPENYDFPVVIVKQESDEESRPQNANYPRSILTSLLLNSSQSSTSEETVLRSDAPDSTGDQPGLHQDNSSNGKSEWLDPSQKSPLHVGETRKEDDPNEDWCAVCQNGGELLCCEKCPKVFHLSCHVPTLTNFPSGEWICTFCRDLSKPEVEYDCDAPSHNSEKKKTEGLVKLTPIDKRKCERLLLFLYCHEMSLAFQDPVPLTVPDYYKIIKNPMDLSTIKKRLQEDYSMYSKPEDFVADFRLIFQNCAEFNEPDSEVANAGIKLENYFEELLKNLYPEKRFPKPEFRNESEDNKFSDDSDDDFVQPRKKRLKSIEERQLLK
UniProt Q9Y3R4, sequence (whole entry, looked up): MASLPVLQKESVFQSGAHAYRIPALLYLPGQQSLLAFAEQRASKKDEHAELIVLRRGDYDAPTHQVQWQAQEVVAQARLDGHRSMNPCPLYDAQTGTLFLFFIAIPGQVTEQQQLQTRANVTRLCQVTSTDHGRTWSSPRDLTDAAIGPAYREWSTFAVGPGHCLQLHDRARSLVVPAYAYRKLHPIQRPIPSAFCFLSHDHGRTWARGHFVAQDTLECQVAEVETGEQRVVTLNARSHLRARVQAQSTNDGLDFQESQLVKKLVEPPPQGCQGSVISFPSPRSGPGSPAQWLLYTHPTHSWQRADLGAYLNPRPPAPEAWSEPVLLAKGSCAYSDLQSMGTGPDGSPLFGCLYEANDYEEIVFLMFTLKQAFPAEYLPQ

The ΔTm of `COc1cc(-c2cc(C(C)=O)n3ccccc23)c(OC)cc1Cn1ccnc1` is reported as 0.1 °C (TRIM24 (Homo sapiens, UniProt O15164)).
The activation of `CN1CCN(c2cc(-c3ccncc3)c(-c3ccc4ccccc4c3)nn2)CC1` is reported as 20.6% (GLP1R; agonist, FLIPR; 12.5 µM).
With `C[C@H](CCC(C)(C)O)[C@H]1CC[C@H]2[C@@H]3CC=C4C[C@@](C)(O)CC[C@]4(C)[C@H]3CC[C@]12C` the current response was 121 ± 5.1% (Glutamate NMDA receptor; GRIN1/GRIN2B (GRIN1/GRIN2B, Homo sapiens, UniProt Q05586+Q13224, T550A); positive allosteric modulator, two-electrode voltage clamp; Xenopus oocytes expressing GluN1-T550A; 10 µM, 0.02% cremophor, with: 100 µM glutamate and glycine; baseline: without compound).
`N#Cc1ccc2[nH]cc(CCCCN3CCN(c4ccc5oc(C(N)=O)cc5c4)CC3)c2c1` gave a Hill coefficient of 0.98 ± 0.08 (SLC6A4 (Homo sapiens, UniProt P31645, N177V); [3H]5-HT uptake, inhibitor; COS-7).
For `O=c1nc(SCc2cc(F)cc(C(F)(F)F)c2)nc(SCc2ccc3sccc3c2)[nH]1`, “mean relaxed DNA” read 3.1% (TOP2A (Homo sapiens, UniProt P11388); DNA relaxation; 31.25 µM).
`CC[C@H](C)[C@H](NC(=O)[C@H](Cc1ccccc1)NC(=O)[C@H](CCC(=O)O)NC(=O)[C@H](CCCNC(=N)N)NC(=O)[C@H](C)NC(=O)[C@H](C)NC(=O)[C@H](CCC(N)=O)NC(=O)[C@H](CCC(=O)O)NC(=O)[C@H](CCC(=O)O)NC(=O)[C@H](CC(C)C)NC(=O)[C@H](Cc1ccc(O)cc1)NC(=O)[C@H](CO)NC(=O)[C@H](CO)NC(=O)[C@@H](NC(=O)[C@H](CC(=O)O)NC(=O)[C@H](CO)NC(=O)[C@@H](NC(=O)[C@H](Cc1ccccc1)NC(=O)[C@@H](NC(=O)CNC(=O)[C@H](CCC(=O)O)NC(=O)[C@H](C)NC(=O)CCc1cnc[nH]1)[C@@H](C)O)[C@@H](C)O)C(C)C)C(=O)N[C@@H](C)C(=O)N[C@@H](Cc1c[nH]c2ccccc12)C(=O)N[C@@H](CC(C)C)C(=O)N[C@H](C(=O)N[C@@H](CCCCNC(=O)COCCOCCNC(=O)COCCOCCNC(=O)CC[C@H](NC(=O)CCCCCCCCCCCCCCCCC(=O)O)C(=O)O)C(=O)NCC(=O)N[C@@H](CCCNC(=N)N)C(=O)N[C@@H](CCCCNc1c(NCCCCCN(O)C(=O)CCC(=O)NCCCCCN(O)C(=O)CCC(=O)NCCCCCN(O)C(C)=O)c(=O)c1=O)C(=O)NCC(=O)NCC(=O)N[C@@H](CO)C(=O)N[C@@H](CCCCNc1c(NCCCCCN(O)C(=O)CCC(=O)NCCCCCN(O)C(=O)CCC(=O)NCCCCCN(O)C(C)=O)c(=O)c1=O)C(=O)NCC(=O)NCC(=O)N[C@@H](CO)C(=O)N[C@@H](CCCCNc1c(NCCCCCN(O)C(=O)CCC(=O)NCCCCCN(O)C(=O)CCC(=O)NCCCCCN(O)C(C)=O)c(=O)c1=O)C(=O)O)C(C)C` — result for “fold potency loss”: 7.4 (GLP1R; agonist, CRE luciferase reporter; BHK cells; metal-free DFO conjugate, with: 0% HSA; baseline: parent peptide).
With `COc1cc(N2CCC(N3CCN(C)CC3)CC2)ccc1Nc1ncc(Cl)c(Nc2ccccc2P(C)(C)=O)n1` the protein level was 1.02 and 1 and 1.05 (ALK tyrosine kinase receptor/Echinoderm microtubule-associated protein-like 4 (Homo sapiens, UniProt Q9HC35+Q9UM73); degrader, immunoblotting, item: ALK tyrosine kinase receptor/Echinoderm microtubule-associated protein-like 4; Ba/F3 EML4-ALK; concentration not given, 12 h, unit not given; baseline: untreated).
`CC(=O)N[C@H]1[C@H]([C@H](O)[C@H](O)CO)OC(O[C@H]2[C@@H](O)[C@@H](CO)O[C@@H](Oc3ccc([N+](=O)[O-])cc3)[C@@H]2O)(C(=O)O)C[C@@H]1O` (stereo partly drawn) has a Vmax of 0.0013 ± 0.0001 mM/s (Sialidase-2 (Homo sapiens, UniProt Q9Y3R4); substrate; 10 min, pH 5.0, 37 °C).
`Cc1ccc(N2CC(C(N)=O)CC2=O)cc1` (stereo not drawn) gave a fold enrichment of 1.13 (Transcription intermediary factor 1-alpha, PHD-bromodomain (TRIM24, Homo sapiens, UniProt O15164); binding, affinity selection mass spectrometry; baseline: other proteins in batch).

Repeated from above:
With `C[C@H](CCC(C)(C)O)[C@H]1CC[C@H]2[C@@H]3CC=C4C[C@@](C)(O)CC[C@]4(C)[C@H]3CC[C@]12C` the current response was 121 ± 5.1% (Glutamate NMDA receptor; GRIN1/GRIN2B (GRIN1/GRIN2B, Homo sapiens, UniProt Q05586+Q13224, T550A); positive allosteric modulator, two-electrode voltage clamp; Xenopus oocytes expressing GluN1-T550A; 10 µM, 0.02% cremophor, with: 100 µM glutamate and glycine; baseline: without compound).
